Published values of several laboratories.
Parts stem from different laboratories: compare values within a part only.

Sample 1
Target: RNA binding protein fox-1 homolog 2, RRM domain, GST-SBP tag (RBFOX2, Homo sapiens, UniProt O43251-10, residues 100-194)
Method: RNA Bind-n-Seq
Form: RNA
Medium: in vitro
Concentration: 365 nM
Setting: natural RNA segment, single round, ends assumed
Reference: no-protein control
Direction: higher = stronger binding
Measurement: RBNS enrichment (R)
Target sequence (chain): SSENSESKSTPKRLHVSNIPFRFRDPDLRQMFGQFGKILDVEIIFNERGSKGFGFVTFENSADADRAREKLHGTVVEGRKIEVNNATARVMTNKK
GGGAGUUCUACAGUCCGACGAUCCUUAUACAUUCCUGUACAGAAAUUACGAUUUUGUGAUUACAGUAAUAAAAUGAUAUUCCUUGUGAAAUAUUAGUAACAAAUUAUUUGGGUAUUUAAACAUUAGGAAUCUUUGGAAUUCUCGGGUGCCAA: 0.386
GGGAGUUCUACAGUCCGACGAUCUGCUGCACCUCCCGGGGCUCCGGGGUGGGGCCAGGGAGGCCAGCCUGGGUCCGACUUCCCAAACACACUGGAGCUCGUUGAGCUGGCUGCGCAGCCUGCUUUGUCCUCCCUGGAAUUCUCGGGUGCCAA: 0.277
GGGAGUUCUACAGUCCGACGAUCGGCUGAACCUGAGAUCUUGGAACUUGAGAGUAAGAGCAAUAAGAUUGUCCAGAGUGUCAUCCAGACAGCCGUCGACCAGUUUGCACGUACAGAAACAGCCCCCGAAACCCUGGAAUUCUCGGGUGCCAA: 4.54
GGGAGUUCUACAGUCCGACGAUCGGCUUUGGUCUGGGCAGUGCAUGUGUUAGUAGUGUACGUGGGCAGGUCGGGCUUUCUAAGCUUUGUCAGAUAACUAUUUUUCCUAAGUAUGUGUUUCCUACUCCAGUGAUUGGAAUUCUCGGGUGCCAA: 1.18
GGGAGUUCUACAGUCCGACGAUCCUUUUAGACAACUUCCUUUUUGUAGUGGUGAACCUUGCCCUUUAGUACAGUUCAAGUGAAUCUGGAUAAUUGUUCAUCUUUGCUUUAGCUUAGAUACCAUGUAGUGGUCUUGGAAUUCUCGGGUGCCAA: 0.464
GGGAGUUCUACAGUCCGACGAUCUGUUUUUUUAGACAAGGCUAAACCUGAAUGACUCUACGUAUCUAUAGUUUCACUGCUCAUAUACCAGCUGCUACAAGAAAAACCAUGACUUGUAAGUUUGUCUUUACUCCUGGAAUUCUCGGGUGCCAA: 0.471
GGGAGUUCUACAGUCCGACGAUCAUUAGGUAACUAAAAAGCGCAAAUUGUUGGCAGGUUUUGCUGCACAUUGUUCUAUGUCUUUGUUGGCUGGUGUAUUUUAUAAACUAAAGCUGCCUAUGUUUCUUUUUAAAUGGAAUUCUCGGGUGCCAA: 0.508
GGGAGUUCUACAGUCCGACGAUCUGGGCAGCCACUCCCCGAGAUGUUGCCAUCAGUUUUCUGCAGUCCAAAGAGGGUAUGGUUAGGUACGGGUCUUCCUGCCUCAUUCCUCUUCCUCUUUGUGUAGGUUUCAGUGGAAUUCUCGGGUGCCAA: 0.236
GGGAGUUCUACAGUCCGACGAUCUAAUGAAUUUUUUAAAGGGAACUUUCUAUGCAAUGUUCAGGAUAAAUGCAUACUGCUGGCCAAUCAGUGUCAUCUCCUGGGUAAAUUUUGAUGUCGCAUUAUAAAGACAUUGGAAUUCUCGGGUGCCAA: 0.772
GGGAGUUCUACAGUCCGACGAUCUGUACAGUCUCUGUGGCUUGGUUGAGUAUGCUCUUUCCUGUGCCAGGUCUUGCUCUGGCUGUUCGCUACUGGCUGAUAAUAACAAGGACCCUGUGUGUGUGUGAAUGAGCUGGAAUUCUCGGGUGCCAA: 1.43
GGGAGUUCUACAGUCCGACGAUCCAUCCCCACCCUUCUUGCCAAAGGACCUCUUUUCCCCUAUCCAGAGACCACCCCAGGUGGCAUUCUCUCCCACCUUCUCCUUUGUCCCCCAUCCCCUGUCUCUGUCUUCCUGGAAUUCUCGGGUGCCAA: 1.3
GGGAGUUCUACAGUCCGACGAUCUCCCAGCGCUGAGAGCCUCCCCUGGCUGUCAGCAGCACUGUGUCCAGGCUCUUGUCUGAACACCGCAGCCCCUCCUUCGCUCCUUCCAGAGCUCAGCAUGUCACGGCAAGUGGAAUUCUCGGGUGCCAA: 1.72

Sample 2
Target: PABPC1L2, full length, GST fusion (mouse, UniProt A0ABA7IW68)
Method: RNAcompete
Form: RNA
Medium: in vitro
Concentration: 20 nM
Setting: 7-mer, probes averaged, single round
Reference: mean of 7-mers
Direction: higher = stronger binding
Measurement: 7-mer Z-score
Construct (chain): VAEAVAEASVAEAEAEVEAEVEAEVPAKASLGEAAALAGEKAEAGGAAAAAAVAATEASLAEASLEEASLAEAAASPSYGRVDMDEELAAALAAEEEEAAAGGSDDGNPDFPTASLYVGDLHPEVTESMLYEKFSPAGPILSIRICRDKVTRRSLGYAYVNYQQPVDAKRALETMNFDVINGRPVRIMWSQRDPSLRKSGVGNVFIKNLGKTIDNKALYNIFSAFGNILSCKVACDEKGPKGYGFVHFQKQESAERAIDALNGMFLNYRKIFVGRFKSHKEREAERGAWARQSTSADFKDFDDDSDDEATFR
UAUCCAU: -0.228
AGGAAAG: 0.249
CGCAAGG: -0.199
ACUGGAC: 0.00979
UUUAAGG: 0.336
GACUACA: -0.0192
UAACUCU: -0.296
ACAUUUC: -0.13
UGCCUCA: -0.173
AUCCUAC: -0.202
UUACACA: -0.197
ACCUGCA: -0.237
GCAUCGA: -0.124
AGGUUUC: -0.385
UAAUAGU: -0.282
UCGCGCA: -0.34
GGUCCAG: -0.0446
CCCGCAA: -0.15
AUGACCC: -0.173
CCUUCCU: -0.449
AAAAGAU: 7.73
UCGCUGG: -0.298
AGCUAGA: -0.0554
AGAGCAA: 0.334

Sample 3
Target: Histone acetyltransferase KAT6A, winged helix 2, GST fusion (KAT6A, Homo sapiens, UniProt Q92794, residues 85-181)
Method: protein binding microarray
Form: double-stranded DNA, one strand shown
Medium: in vitro
Concentration: not given
Setting: 8-mer, flanks averaged, mean of 2 arrays, mostly near background
Reference: not given
Direction: higher = stronger binding
Measurement: E-score
Target sequence (chain): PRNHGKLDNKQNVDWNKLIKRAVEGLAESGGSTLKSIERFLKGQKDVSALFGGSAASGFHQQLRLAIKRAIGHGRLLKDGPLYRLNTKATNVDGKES
AATGTACT: -0.187
ACCAGGTA: -0.094
TAATCCCA: -0.147
GCGCTGAA: -0.0464
AACCAGCT: 0.156
CTCGAATC: -0.0394
TTCGACAA: 0.0851
CTCATCGA: -0.062
AGCCTGCC: 0.00778
ACAGATTA: -0.132
GGTAAAGA: -0.0102
AACCACGT: -0.252
CCTTTTCA: 0.00013
CCGGCACG: 0.126
AGAAACGG: 0.199
GACAGTCC: -0.143
GGGGAGTA: 0.107
ATTTTAAG: -0.0378
ACATTTAT: -0.305
GCGCACTA: 0.0373
ACTTCTAA: -0.064
ACCGTAGG: 0.00894
GCAGAAAA: 0.133
GACCGGTA: -0.0418
CTGGCAGA: 0.0283

Sample 4
Target: Hepatocyte nuclear factor 3-alpha (Foxa1, Mus musculus, UniProt P35582, residues 1-468, full length assumed)
Method: EMSA with sequencing
Form: double-stranded DNA, one strand shown
Medium: in vitro
Concentration: 10 and 20 nM
Setting: whole designed probe, mean of two concentrations, ends assumed
Reference: negative control set to 0
Direction: higher = stronger binding
Measurement: normalised bound fraction
Target sequence (chain): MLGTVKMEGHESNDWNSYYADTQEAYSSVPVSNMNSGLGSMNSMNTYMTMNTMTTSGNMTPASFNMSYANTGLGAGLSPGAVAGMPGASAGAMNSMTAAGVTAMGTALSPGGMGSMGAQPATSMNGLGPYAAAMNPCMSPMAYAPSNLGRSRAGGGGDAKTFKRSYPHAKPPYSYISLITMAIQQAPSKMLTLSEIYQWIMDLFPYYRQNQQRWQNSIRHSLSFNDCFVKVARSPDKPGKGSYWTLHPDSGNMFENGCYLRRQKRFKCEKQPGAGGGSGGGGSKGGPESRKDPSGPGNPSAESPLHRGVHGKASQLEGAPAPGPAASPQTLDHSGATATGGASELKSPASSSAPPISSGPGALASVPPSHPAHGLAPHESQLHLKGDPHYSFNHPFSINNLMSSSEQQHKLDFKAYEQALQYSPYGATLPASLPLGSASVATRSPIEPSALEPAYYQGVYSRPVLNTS
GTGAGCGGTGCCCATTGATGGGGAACACTTTTTCTGTCTGTCTCTGCAGATCCTTACAGTGCTCACTTACCTATTCTTTGACTTCAATCTCTTGTTGCTCTCTTTACTCCACATTCCAAAGTAAACAAGCCTTTTTTTTTTTTAATTTCCTTAGAGGCGTATAGTGGAAGAAAGGGAACAAATCTTGCTTAAATTCACCATCTACTAGCTACCATTTCATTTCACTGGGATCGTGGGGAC: 0.396 ratio
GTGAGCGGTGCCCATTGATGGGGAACACTCTGCCCGCTCCCCAAGGGTAGAAGTCACAGTGTGATTCCTGGGAGGGCATTGCTTCTTATCTATTACTTCATTCATATATAAATAAGACATGTTTGCACTTCCAAGGTGCACCCCCGCCCCGAGGAAGAGGGATGCTGACGTGTAGTAGACGCCTTCCACTCCCTTGCAGAGTGGCTGGGGAGGACAAGATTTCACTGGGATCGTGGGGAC: 0.225 ratio
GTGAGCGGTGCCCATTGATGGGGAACATCTTCCCCCTCTTCCTTGCCCCACCAGCTCACCTACGGGGGTTATTTGCACAAAGGAAAATAAATAAAGCCGGCATTCGTTAACGCAGTTCTGGCGCAAACTGCTGTTTGCTCTGGATGAATCATGGTCCTTTGGCGAGGCGTGGCTCCGGGAGAGCAAAGCACCGTGTCAGGGCCATGATCCGGGCTCGCCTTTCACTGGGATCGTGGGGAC: 0.384 ratio
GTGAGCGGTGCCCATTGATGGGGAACAGTTGGGATTAAAAAAACAAAATCCAAAATCTGGGTTTCAGTGTCATCTGTAAAATGTAGATATAATGACTGTGGTGAGTATCTGTGTGTGCAAGAGTACATATGTGTATGAGTTTATGTAGGAGTACACATATACTTAGAAGCACAAATGAGTCATGCTCTATACAACATTGTGCAGCTCCTTTTTTACAGATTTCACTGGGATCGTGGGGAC: 0.0626 ratio
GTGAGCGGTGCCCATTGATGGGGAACATCTTCCCCCTCTTCCTTGCCCCACCAGCTCACCTTCCCGGGTTATTTGCACAAAGGAAAATAAATAAAGCCGGCATTCGTTAACCCTCTTCTGGCGCAAACTGCTGTTTGCTCTGGATCTAACATGGTCCTTTGGCGAGGCGTGGCTCCGGGAGAGCAAAGCACCGTGTCAGGGCCATGATCCGGGGTGGCCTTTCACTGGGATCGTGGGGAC: 0.362 ratio
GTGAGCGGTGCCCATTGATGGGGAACCAAGTTTGTGGTCCAGGAGCAACAGGTTATGCCATACAGCCTAGGTGTGTAGTAGGCTACACACCGTCTATGTTTGTGTTGTACACTCTACAAAGATTGCACAATGATGAAATCCCATGACTCATTTCTCAGAACATACCCCTGTTGTTAAGCGATACATGACTGTACTTTTTTTAAAAAGTCCAAGGATATATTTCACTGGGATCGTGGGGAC: 0.153 ratio
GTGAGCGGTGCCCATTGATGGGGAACATCTTCCCCCTCTTCCTTGCCCCACCAGCTCACCTTCCCGGGTTATTTGCAGATAGGAAAATAAATAAAGCCGGCATTCGTTAACCCTCTTCTGGCGCAAACTGCTGTTTGCTCTGGATGAATCATGGTCCTTTGGCGACGCCAGGCTCCGGGGAAGCAAGACACCGTGTCAGGGCCATGATCCGGGGTGGCCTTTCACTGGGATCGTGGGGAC: 0.336 ratio
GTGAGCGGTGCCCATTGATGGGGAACTGCCCACTGCCTATGGGAGTTGACACTTTTGAGTTTAACATTCATTCCAGCTCTTCCGTCATCTCCAGACCCTACTATTCCAAACTCATCTCTTATTGACTTTCTGACTCATTAAATGTTGACCTTAGCAATCCGCTGTCCTTTACATGGTCCAGAATACCTCCTTCTTCATCATGTTACGCCAGTCTTTCAGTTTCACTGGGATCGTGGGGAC: 0.244 ratio

Excerpt of the above (sample 3):
GCGCACTA: 0.0373
ACTTCTAA: -0.064
ACCGTAGG: 0.00894
GCAGAAAA: 0.133
